Results of several laboratories.
Protocols differ between the studies behind these lines. Numbers after ± are the reported error. Values after ≈ are worked out from the molar mass of the structure shown.

| SMILES | cell line | assay | setting | scale | endpoint | result |
| --- | --- | --- | --- | --- | --- | --- |
| CCn1c(SC(C)C(=O)Nc2ccc(C)cc2C)nnc1C1CCN(C(=O)Nc2ccccc2)CC1 (stereo not shown) | human blood mononuclear cells | MTT | 0.25 mM, 2 h, pH 7.4 |  | viability | 86.2 ± 2.7% |
| CC(=O)O[C@H]1CC[C@]2(C)C3=C(CC[C@H]2C1(C)C)[C@@]1(C)CC[C@@H]([C@H](C)CCC=C(C)C)[C@]1(C)CC3 | SK-LU-1 | cell growth or viability, SRB | 50 µM |  | inhibition | 40% |
| CCn1c(SC(C)C(=O)Nc2cccc(C)c2C)nnc1C1CCN(C(=O)Nc2ccccc2)CC1 (stereo not shown) | human blood mononuclear cells | MTT | 0.25 mM, 2 h, pH 7.4 |  | viability | 78.6 ± 2.8% |
| C[C@H](CCC=O)[C@@H]1CC[C@]2(C)C3=C(CC[C@@]12C)[C@@]1(C)CC[C@H](O)C(C)(C)[C@@H]1CC3 | SK-LU-1 | cell growth or viability, SRB | 50 µM |  | inhibition | 88.4% |
| N=C(N)Nc1nc2ccccc2s1 | WI-38 | MTT | concentration not given, 24 h |  | cytotoxicity | not toxic |
| CN(C)c1cc(CNCc2ccccc2)c(O)c2c1C[C@H]1C[C@H]3[C@H](N(C)C)C(O)=C(C(N)=O)C(=O)[C@@]3(O)C(O)=C1C2=O | CHO | cytotoxicity, resazurin | 10% fetal calf serum |  | TC50 | 54 µg/mL (≈ 93.6 µM) |
| C=CCn1c(S)nnc1CSc1ccccc1[N+](=O)[O-] | HCT-116 | MTS | 1.6 to 25 µM, 48 h |  | cytotoxicity | not toxic |
| O=C(CNc1nc(O)nc(NNC(=O)c2ccc(Nc3nc(Nc4ccc(C(=O)NNc5nc(O)nc(NCC(=O)NO)n5)cc4)nc(Nc4ccc(C(=O)NNc5nc(O)nc(NCC(=O)NO)n5)cc4)n3)cc2)n1)NO | WI-38 cells | cell viability, MTT | 72 h |  | maximum non-toxic concentration | 2.9 ± 0.2 nM |
| CCn1c(SC(C)C(=O)Nc2cccc(C)c2)nnc1C1CCN(C(=O)Nc2ccccc2)CC1 (stereo not shown) | human blood mononuclear cells | MTT | 0.25 mM, 2 h, pH 7.4 |  | viability | 84.4 ± 2.9% |
| CCNc1cc2c(cc1C)C1(c3cc(C)c(NCC)cc3O2)c2ccccc2C(=O)N1N=Cc1c[c-]c(-c2ccccn2)cc1.Cc1c(C)c(-c2ccc(-c3ccccc3)cc2)[c-](C)c1C.[Cl-].[Ir+3] | A549 | confocal microscopy | 1 × IC50, 4 °C, added: CCCP 50 µM |  | cellular uptake | decreased |
| Cc1c(C)c(C)[c-](C)c1C.[C-]#[O+].[C-]#[O+].[C-]#[O+].[Cl-].[Cl-].[Cl-].[Ir+3].[Re+].c1cnc(-c2ncccn2)nc1 | MDA-MB-468 | annexin V/PI | 25 µM, 48 h |  | viable cells | 68.2% |
| Clc1cc(Cl)cc(CNCCCNc2nc3ncccc3[nH]2)c1 | CRL-8155 and HepG2 | cytotoxicity |  |  | EC50 | ≥ 20 µM |
| COc1ccc(-c2nc(-c3ccccc3OC)[nH]c2-c2ccc(OC)cc2)cc1 | MRC-5 | cytotoxicity, resazurin | 7 days, 5% fetal calf serum |  | EC50 | > 64 µM |
| Oc1cccc(-c2cccc(O)n2)n1.[Cl-].[Cl-].[Ru+2].c1cnc2c(c1)c1c(c3cccnc32)OCCO1.c1cnc2c(c1)c1c(c3cccnc32)OCCO1 | MCF-10A | flow cytometry | 50 µM, dark, added: deoxyglucose and oligomycin | reference: no metabolic inhibition | cellular uptake | no effect |
| CCc1ccccc1NC(=O)C(C)Sc1nnc(C2CCN(C(=O)Nc3ccccc3)CC2)n1CC (stereo not shown) | human blood mononuclear cells | MTT | 0.25 mM, 2 h, pH 7.4 |  | viability | 76.3 ± 2.8% |
| Fc1ccc2nc(NCCCN[C@@H]3CCNc4c(Cl)cc(Cl)cc43)[nH]c2n1 | CRL-8155 and HepG2 | cytotoxicity |  |  | EC50 | ≥ 20 µM |
| CSCC[C@H](NC(=O)[C@H](CCC(N)=O)NC(=O)[C@H](Cc1ccc(O)cc1)NC(=O)[C@H](CO)NC(=O)[C@@H](N)Cc1ccc(O)cc1)C(=O)N[C@@H](C)C(=O)N[C@@H](CC(C)C)C(=O)N[C@H](C(=O)N1CCC[C@H]1C(=O)N[C@H](C(=O)N[C@H](C(=O)N[C@@H](CCCCNC(=O)c1ccc2c(c1)C(=O)OC21c2ccc(O)cc2Oc2cc(O)ccc21)C(=O)N[C@H](C(=O)N[C@@H](CC(C)C)C(=O)O)[C@@H](C)O)C(C)C)C(C)C)[C@@H](C)O | U-937 | single-cell capillary electrophoresis | 100 µM, pinocytic loading |  | time to degradation | ≤ 20 min |
| O=C(O)CNc1nc(NCC(=O)O)nc(NNC(=O)c2ccc(Nc3nc(Nc4ccc(C(=O)NNc5nc(NCC(=O)O)nc(NCC(=O)O)n5)cc4)nc(Nc4ccc(C(=O)NNc5nc(NCC(=O)O)nc(NCC(=O)O)n5)cc4)n3)cc2)n1 | WI-38 cells | cell viability, MTT | 72 h |  | maximum non-toxic concentration | 13.8 ± 0.2 nM |
| Oc1cc(NCCCNCc2cc(Cl)cc(Cl)c2)nc2ccccc12 | CRL-8155 and HepG2 | cytotoxicity |  |  | EC50 | ≥ 20 µM |
| CN1CCN(c2ccc(C(=O)Nc3n[nH]c4ccc(Cc5cc(F)cc(F)c5)cc34)c(NC3CCOCC3)c2)CC1 | sheep erythrocytes |  | 16 to 256 µg/mL |  | haemolysis | < 9% |
| CC(=O)N[C@H](C(=O)N[C@H](C(=O)N[C@@H](CCCNC(=N)N)C(=O)N1Cc2ccccc2C[C@H]1C(=O)N[C@@H](Cc1ccccc1)C(N)=O)C1CCCCC1)C(C)C | human PBMC | Bio-Plex multiplex, item: GM-CSF | 500 µg/mL, 24 h |  | cytokine level | < 1.3 pg/mL |
| COC(=O)COc1ccc(NC(=O)C2(c3ccc(Cl)c(Cl)c3)CC2)c(C)c1 | U-937 | LDH release | 50 µM, 4 h | reference: Triton X-100 | cytotoxicity | 2% |
| C[C@@H](CNCc1cc(Cl)cc(Cl)c1)CNc1nc2cccnc2[nH]1 | CRL-8155 and HepG2 | cytotoxicity |  |  | EC50 | ≥ 20 µM |
| C=CC(C)(C)c1c(O)cc2c(c1O)C(=O)CC(c1ccccc1)O2 (stereo not shown) | U-937 | cytotoxicity | 24 h |  | EC50 | 185 ± 16.2 µM |
| O=C(O)CNc1nc(O)nc(NNC(=O)c2ccc(Nc3nc(Nc4ccc(C(=O)NNc5nc(O)nc(NCC(=O)O)n5)cc4)nc(Nc4ccc(C(=O)NNc5nc(O)nc(NCC(=O)O)n5)cc4)n3)cc2)n1 | WI-38 cells | cell viability, MTT | 72 h |  | maximum non-toxic concentration | 3 ± 0.1 nM |
| O=C(NCCCNc1n[n+]([O-])c2ccccc2[n+]1[O-])C(F)(F)F | HCT-116 |  |  | reference: normoxic IC50 over hypoxic IC50 | hypoxic cytotoxicity ratio | 1.4 |
| NS(=O)(=O)c1ccc(NC(=O)NN[C@@H]2O[C@H](CO)[C@@H](O)[C@H](O)[C@H]2O)cc1 | rabbit erythrocytes |  | 4 µg/mL, 3 h | reference: complete lysis | hemolysis | 0% |
| CCC1(C)CCN(Cc2cc(N(C)C)c3c(c2O)C(=O)C2=C(O)[C@]4(O)C(=O)C(C(N)=O)=C(O)[C@@H](N(C)C)[C@@H]4C[C@@H]2C3)CC1 | CHO | cytotoxicity, resazurin | 10% fetal calf serum |  | TC50 | > 100 µg/mL |

Excerpt of the above:
| SMILES | cell line | assay | setting | scale | endpoint | result |
| --- | --- | --- | --- | --- | --- | --- |
| CN(C)c1cc(CNCc2ccccc2)c(O)c2c1C[C@H]1C[C@H]3[C@H](N(C)C)C(O)=C(C(N)=O)C(=O)[C@@]3(O)C(O)=C1C2=O | CHO | cytotoxicity, resazurin | 10% fetal calf serum |  | TC50 | 54 µg/mL (≈ 93.6 µM) |
| C=CCn1c(S)nnc1CSc1ccccc1[N+](=O)[O-] | HCT-116 | MTS | 1.6 to 25 µM, 48 h |  | cytotoxicity | not toxic |
| O=C(CNc1nc(O)nc(NNC(=O)c2ccc(Nc3nc(Nc4ccc(C(=O)NNc5nc(O)nc(NCC(=O)NO)n5)cc4)nc(Nc4ccc(C(=O)NNc5nc(O)nc(NCC(=O)NO)n5)cc4)n3)cc2)n1)NO | WI-38 cells | cell viability, MTT | 72 h |  | maximum non-toxic concentration | 2.9 ± 0.2 nM |
| CCn1c(SC(C)C(=O)Nc2cccc(C)c2)nnc1C1CCN(C(=O)Nc2ccccc2)CC1 (stereo not shown) | human blood mononuclear cells | MTT | 0.25 mM, 2 h, pH 7.4 |  | viability | 84.4 ± 2.9% |
